Measured values pooled from the literature.
Numbered parts are unrelated; each lists some results of a single study.
UniProt O15294, sequence (whole entry, looked up): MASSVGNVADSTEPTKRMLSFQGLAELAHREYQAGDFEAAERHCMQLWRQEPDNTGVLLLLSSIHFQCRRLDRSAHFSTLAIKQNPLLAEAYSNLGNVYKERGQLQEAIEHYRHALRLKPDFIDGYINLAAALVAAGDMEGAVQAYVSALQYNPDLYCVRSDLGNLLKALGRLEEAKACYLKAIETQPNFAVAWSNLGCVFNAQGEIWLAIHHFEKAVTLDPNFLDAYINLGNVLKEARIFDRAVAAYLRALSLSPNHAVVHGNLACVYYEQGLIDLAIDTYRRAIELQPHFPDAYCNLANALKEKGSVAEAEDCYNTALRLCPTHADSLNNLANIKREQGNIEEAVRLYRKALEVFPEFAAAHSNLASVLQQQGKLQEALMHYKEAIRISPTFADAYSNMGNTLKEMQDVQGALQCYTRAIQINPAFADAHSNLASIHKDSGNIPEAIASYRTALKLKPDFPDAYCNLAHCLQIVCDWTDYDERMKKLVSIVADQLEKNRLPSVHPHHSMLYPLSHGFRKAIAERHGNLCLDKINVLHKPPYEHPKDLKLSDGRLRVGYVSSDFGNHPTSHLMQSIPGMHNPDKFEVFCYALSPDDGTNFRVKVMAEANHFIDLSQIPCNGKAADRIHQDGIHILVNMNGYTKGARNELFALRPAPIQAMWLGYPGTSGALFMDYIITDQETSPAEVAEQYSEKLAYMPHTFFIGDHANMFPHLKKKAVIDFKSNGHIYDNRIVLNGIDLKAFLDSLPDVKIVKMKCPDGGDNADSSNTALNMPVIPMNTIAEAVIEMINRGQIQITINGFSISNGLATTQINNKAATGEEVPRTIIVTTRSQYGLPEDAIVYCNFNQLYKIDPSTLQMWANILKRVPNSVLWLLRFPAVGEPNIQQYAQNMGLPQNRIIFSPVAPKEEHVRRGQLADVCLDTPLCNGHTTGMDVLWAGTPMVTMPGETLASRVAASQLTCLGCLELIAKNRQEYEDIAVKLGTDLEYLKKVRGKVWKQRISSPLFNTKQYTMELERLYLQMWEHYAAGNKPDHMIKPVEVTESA

Series 1 — method: RNA Bind-n-Seq; molecule type: RNA; matrix: in vitro; tested at: 1 µM; notes: whole 134-nt RNA, ends assumed; together with: 150 mM KCl; baseline: input library; reading: higher = stronger binding
Target: Ras GTPase-activating protein-binding protein 1, C-terminal RGG region (G3BP1, Homo sapiens, UniProt Q13283)
UniProt Q13283, sequence (whole entry, looked up): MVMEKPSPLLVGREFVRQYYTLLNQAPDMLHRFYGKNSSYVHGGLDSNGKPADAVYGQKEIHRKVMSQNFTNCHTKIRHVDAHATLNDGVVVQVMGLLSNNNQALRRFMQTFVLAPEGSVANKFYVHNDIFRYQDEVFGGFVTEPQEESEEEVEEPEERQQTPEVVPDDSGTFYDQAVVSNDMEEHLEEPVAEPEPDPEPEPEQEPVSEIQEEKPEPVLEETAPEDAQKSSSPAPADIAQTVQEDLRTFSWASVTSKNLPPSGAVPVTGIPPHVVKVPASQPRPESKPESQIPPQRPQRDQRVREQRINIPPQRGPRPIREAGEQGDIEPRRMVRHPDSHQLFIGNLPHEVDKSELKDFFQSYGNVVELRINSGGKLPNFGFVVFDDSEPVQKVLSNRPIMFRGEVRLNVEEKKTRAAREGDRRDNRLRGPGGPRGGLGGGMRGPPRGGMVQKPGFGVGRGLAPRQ
`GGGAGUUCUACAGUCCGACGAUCACCAUGCAGGAAAGCAUCUUUGGGAAGUGGGGCAAGGGGGGGAUAGGGAGGGGGGUAACACUUUGGGAACAGGUGGUCCCAGGUCGUUUCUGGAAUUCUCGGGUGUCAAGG` has a log2 enrichment of -1.17.
`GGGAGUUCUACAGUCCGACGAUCAAGUCCUGUGCUACACAUCGUAUGUACCGAAUCGGGCCCCGGGCCCCGGGCCCCGGAAAGUAUUAUGUUACGCCGUUCGGAUCUGCACUUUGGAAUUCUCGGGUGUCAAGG` gave a log2 enrichment of -0.798.
`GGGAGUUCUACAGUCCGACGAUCGUUUGAUGAUCGUGGACGGAGUGAUUACGAUGGCAUUGGCAGCCGUGGUGACAGAAGUGGCUUUGGCAAAUUUGAACGUGGUGGAAACAGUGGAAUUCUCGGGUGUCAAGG` has a log2 enrichment of 1.17.
With `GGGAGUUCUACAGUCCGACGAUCGCAGGAAGUAAAAACAAAUGGAAAUGCUAAAGAUAGUGGCAGGGGUGGGGGUUGCUAAGGAAAGGGUGGGAUGGGAGUGGGUAAAGAGUUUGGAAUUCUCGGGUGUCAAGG` the log2 enrichment was 2.1.
`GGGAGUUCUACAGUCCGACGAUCUGGGAGGUGGAUUUUGUUUAUUUUUUUAGCUCAUUUCCAGGGGUGGGAUUUUUUUUUUAAUAUGUGUCAUGAAUAAAGUUGUUUUUGAAAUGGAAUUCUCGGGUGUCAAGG` gave a log2 enrichment of 3.18.
`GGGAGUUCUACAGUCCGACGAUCGCAGGAAGUAAAAACAAAUGGAAAUACUUCGGAUAGUGGCAGGGGUGGGGGUUGCUAAGGAAAGGGUGGGAUGGGAGUGGGUAAAGAGUUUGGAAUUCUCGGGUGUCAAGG` has a log2 enrichment of 2.3.
For `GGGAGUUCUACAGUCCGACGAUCUAACUUUAGAGGAGGAUCUGAUGGAUAUGGCAGUCGACGUGGAUUUGGGGAUGGCUAUAAUGGGUAUGGAGGAGGACCUGGAGGUGGCAAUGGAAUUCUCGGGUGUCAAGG`, the log2 enrichment was -0.527.
For `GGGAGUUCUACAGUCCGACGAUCUAUUAAUUUGAUAUAUUUAUUAUGAUUUGUAGAGGACGUCGGUGAUGAAGGAGAAGAAGAAAAAGAAUUCAUUUCCUAUAACAUCAACAUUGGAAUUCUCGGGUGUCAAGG`, the log2 enrichment was -2.82.

Series 2 — method: protein binding microarray; molecule type: double-stranded DNA, one strand shown; matrix: in vitro; tested at: not given; baseline: not given; reading: higher = stronger binding
Target: Histone acetyltransferase KAT6A, both winged helices, GST fusion (KAT6A, Homo sapiens, UniProt Q92794, residues 1-181)
Notes: 8-mer, flanks averaged, mean of 2 arrays, mostly near background
Residues (chain): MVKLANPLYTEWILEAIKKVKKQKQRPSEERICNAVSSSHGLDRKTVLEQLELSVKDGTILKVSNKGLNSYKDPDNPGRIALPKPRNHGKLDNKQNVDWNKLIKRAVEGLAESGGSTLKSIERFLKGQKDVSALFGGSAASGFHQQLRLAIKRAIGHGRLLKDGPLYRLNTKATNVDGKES
`AGTATCAA` gave an E-score of -0.065.
The E-score of `CTTGGTAA` is reported as -0.178.
For `ACGCCTCC`, the E-score was -0.0132.
`ACTGTCTG` gave an E-score of -0.0877.
`CGGGGTGA` gave an E-score of -0.00942.
The E-score of `GAATTGTC` is reported as -0.103.
For `CCTATATC`, the E-score was -0.0175.
For `CGCAAGCC`, the E-score was 0.176.

Series 3 — method: universal PBM; molecule type: double-stranded DNA, one strand shown; matrix: in vitro; tested at: not given; reading: higher = stronger binding
Target: Sal-like protein 4, full length isoform B (SALL4, Homo sapiens, UniProt Q9UJQ4-2, residues 1-616)
Notes: 8-mer, flanks averaged, mean of replicates
`ACACTGTC` has an E-score of 0.043.
`GTTGCTGA` gave an E-score of 0.0254.
For `CAGGTTCG`, the E-score was -0.00196.
`AACAGATC` gave an E-score of 0.00946.
For `AGCAGGGG`, the E-score was -0.0867.
The E-score of `TAAATCTA` is reported as 0.231.
The E-score of `CATACTGA` is reported as 0.159.
With `CACTCATA` the E-score was 0.253.

Single results of other studies
For `HGRDTYMEKGHYHF`, “minimum log2 enrichment ratio” read 1.93 (UDP-N-acetylglucosamine--peptide N-acetylglucosaminyltransferase 110 kDa subunit (OGT, Homo sapiens, UniProt O15294); binding, phage display NGS; peptide; baseline: input library).

For quick reference, copied from above (series 3):
`ACACTGTC` has an E-score of 0.043.
For `CAGGTTCG`, the E-score was -0.00196.
